Assay results pooled from the literature.
Several values in a cell are separate wells, animals, samples, runs or records. Numbers after ± are the reported error.
TACR2: Substance-K receptor (TACR2, Homo sapiens, UniProt P21452)
Chain of UniProt P21452 (whole entry, looked up): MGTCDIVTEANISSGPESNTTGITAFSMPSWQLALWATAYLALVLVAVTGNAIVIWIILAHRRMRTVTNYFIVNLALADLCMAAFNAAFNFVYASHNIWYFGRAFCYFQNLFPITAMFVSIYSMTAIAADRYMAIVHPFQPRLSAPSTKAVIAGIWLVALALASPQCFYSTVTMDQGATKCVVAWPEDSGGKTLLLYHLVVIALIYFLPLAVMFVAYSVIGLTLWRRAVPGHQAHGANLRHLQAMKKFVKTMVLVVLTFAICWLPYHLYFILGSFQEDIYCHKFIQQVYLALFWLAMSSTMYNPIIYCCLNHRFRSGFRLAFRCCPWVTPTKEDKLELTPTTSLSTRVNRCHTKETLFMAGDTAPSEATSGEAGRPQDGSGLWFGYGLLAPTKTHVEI
SIRT5: NAD-dependent protein deacylase sirtuin-5, mitochondrial (SIRT5, Homo sapiens, UniProt Q9NXA8)
Chain of UniProt Q9NXA8 (whole entry, looked up): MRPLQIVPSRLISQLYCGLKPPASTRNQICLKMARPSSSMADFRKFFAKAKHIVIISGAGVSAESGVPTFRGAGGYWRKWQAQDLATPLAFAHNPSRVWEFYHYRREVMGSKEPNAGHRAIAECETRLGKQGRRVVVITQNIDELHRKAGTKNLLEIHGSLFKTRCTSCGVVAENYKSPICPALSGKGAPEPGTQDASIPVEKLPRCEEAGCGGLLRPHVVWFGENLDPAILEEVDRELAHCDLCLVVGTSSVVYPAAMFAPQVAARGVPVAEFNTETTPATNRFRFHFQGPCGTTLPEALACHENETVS
Genome polyprotein NS2B-NS3 protease: Genome polyprotein, NS2B-NS3 protease (dengue virus type 2, UniProt P29990)
HDAC11: Histone deacetylase 11 (HDAC11, Homo sapiens, UniProt Q96DB2)
Chain of UniProt Q96DB2 (whole entry, looked up): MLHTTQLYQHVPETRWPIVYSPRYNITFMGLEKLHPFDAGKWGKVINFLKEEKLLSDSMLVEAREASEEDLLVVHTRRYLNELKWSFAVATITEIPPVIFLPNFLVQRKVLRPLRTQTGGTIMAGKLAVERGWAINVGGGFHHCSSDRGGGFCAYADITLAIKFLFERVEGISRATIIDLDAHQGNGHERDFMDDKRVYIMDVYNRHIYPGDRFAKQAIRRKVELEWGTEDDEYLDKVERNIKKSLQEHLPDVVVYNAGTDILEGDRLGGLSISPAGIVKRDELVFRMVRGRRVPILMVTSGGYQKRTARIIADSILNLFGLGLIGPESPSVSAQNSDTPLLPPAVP
Chain of UniProt Q13148 (whole entry, looked up): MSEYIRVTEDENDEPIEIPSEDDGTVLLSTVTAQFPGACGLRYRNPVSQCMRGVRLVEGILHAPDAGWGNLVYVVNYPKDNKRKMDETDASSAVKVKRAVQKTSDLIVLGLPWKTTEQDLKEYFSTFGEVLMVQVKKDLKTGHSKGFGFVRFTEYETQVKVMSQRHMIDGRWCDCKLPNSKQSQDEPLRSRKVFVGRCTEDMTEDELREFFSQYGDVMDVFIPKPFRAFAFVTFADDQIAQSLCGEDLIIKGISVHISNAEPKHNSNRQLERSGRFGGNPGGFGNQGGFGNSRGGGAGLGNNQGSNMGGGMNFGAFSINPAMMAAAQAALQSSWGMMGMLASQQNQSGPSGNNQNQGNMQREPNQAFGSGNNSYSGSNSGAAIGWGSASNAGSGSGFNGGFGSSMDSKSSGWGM
Chain of UniProt Q93009 (whole entry, looked up): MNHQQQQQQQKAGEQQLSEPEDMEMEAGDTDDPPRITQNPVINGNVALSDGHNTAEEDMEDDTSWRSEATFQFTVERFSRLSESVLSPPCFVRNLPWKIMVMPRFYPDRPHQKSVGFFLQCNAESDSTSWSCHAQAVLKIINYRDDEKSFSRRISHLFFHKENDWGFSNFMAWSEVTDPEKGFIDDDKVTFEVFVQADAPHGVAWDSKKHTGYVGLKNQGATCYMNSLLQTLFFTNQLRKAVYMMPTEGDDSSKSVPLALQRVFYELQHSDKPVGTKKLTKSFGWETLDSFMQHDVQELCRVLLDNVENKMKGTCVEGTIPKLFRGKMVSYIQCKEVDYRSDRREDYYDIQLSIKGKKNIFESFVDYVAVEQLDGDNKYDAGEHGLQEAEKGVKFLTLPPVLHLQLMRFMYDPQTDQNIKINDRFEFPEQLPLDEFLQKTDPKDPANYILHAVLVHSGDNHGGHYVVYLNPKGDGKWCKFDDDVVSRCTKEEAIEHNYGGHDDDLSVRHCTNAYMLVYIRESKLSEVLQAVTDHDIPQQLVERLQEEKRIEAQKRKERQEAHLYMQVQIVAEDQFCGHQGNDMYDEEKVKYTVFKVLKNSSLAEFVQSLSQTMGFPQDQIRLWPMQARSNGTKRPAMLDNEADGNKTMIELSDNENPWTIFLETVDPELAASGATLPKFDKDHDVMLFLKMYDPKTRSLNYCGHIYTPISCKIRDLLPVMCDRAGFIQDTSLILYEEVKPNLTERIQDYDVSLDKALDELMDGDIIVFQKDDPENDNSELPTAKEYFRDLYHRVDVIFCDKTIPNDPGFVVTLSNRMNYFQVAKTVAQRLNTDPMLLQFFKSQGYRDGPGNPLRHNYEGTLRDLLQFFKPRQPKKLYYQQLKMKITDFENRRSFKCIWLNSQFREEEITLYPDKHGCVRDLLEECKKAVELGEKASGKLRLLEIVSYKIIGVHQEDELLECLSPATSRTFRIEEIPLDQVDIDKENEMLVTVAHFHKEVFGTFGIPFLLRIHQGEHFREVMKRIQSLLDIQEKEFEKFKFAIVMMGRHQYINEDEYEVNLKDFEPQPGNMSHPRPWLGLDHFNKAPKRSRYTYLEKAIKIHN
Chain of UniProt Q7Z5W3 (whole entry, looked up): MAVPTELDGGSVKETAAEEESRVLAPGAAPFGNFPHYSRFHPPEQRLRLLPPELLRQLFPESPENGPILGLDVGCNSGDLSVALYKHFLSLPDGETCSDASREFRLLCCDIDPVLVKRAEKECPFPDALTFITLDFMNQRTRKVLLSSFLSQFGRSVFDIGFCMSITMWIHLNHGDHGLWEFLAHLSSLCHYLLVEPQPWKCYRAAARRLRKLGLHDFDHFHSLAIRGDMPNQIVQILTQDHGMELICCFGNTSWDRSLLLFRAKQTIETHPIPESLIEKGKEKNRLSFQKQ
Chain of UniProt Q00987 (whole entry, looked up): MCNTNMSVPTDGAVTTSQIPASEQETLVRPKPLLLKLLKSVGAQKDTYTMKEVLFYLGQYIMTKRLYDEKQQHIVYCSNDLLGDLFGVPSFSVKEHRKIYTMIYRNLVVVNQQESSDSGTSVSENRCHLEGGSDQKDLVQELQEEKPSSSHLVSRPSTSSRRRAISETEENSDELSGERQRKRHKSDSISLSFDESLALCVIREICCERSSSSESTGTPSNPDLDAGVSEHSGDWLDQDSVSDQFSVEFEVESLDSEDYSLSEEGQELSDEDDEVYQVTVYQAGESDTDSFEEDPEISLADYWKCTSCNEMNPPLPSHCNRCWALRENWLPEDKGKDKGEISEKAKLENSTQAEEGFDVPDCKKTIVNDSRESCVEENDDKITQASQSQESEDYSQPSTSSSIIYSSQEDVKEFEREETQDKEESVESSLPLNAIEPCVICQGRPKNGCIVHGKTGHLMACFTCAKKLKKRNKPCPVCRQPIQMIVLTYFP
Chain of UniProt P25100 (whole entry, looked up): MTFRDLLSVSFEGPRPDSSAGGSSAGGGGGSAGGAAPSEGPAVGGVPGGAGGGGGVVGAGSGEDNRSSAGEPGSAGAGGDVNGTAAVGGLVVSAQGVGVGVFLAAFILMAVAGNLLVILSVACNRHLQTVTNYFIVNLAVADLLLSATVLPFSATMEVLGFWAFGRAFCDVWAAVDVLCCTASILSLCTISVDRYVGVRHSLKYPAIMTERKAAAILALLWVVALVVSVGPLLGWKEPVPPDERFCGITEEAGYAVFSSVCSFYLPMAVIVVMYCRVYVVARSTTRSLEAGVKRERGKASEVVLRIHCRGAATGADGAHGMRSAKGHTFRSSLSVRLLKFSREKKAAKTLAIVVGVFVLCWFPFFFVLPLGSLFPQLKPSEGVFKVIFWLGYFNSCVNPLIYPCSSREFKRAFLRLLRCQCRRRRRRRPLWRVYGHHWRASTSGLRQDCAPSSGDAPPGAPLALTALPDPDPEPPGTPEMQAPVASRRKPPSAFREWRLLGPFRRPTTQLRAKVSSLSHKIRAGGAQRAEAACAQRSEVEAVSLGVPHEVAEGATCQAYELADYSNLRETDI
Chain of UniProt P23743 (whole entry, looked up): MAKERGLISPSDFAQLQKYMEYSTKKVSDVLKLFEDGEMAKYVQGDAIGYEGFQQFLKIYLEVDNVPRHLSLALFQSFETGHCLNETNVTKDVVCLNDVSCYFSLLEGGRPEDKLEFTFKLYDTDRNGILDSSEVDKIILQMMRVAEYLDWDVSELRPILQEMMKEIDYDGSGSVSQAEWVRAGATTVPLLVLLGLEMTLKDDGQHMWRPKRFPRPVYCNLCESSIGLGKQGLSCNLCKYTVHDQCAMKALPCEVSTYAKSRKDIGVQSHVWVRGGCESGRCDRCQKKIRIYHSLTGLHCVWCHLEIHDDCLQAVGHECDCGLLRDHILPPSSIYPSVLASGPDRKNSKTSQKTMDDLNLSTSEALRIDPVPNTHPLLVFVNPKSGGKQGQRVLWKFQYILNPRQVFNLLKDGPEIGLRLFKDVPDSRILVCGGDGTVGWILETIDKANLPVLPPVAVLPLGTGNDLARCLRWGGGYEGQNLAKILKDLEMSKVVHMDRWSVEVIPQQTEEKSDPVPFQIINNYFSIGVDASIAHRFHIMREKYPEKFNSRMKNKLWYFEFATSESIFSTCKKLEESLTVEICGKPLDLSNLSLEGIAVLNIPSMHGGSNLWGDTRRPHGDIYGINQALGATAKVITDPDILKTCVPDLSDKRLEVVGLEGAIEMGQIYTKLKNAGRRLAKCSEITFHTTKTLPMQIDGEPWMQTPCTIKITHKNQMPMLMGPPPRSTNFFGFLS

With `CCC(=O)N(C)c1ccc(Cl)c(Cl)c1` the inhibition was under 10% (TACR2; ligand displacement, radioligand; 10 µM).
The inhibition of `O=C(NC1CCC1)[C@H](Cc1c[nH]c2ccccc12)NC(=O)[C@H](CCCCNC(=S)NCS(=O)(=O)O)NS(=O)(=O)c1cccc(F)c1` is reported as 67% (SIRT5; enzyme activity, inhibitor; 100 µM).
For `Cn1sc(Nc2c(Cl)ccc3ncccc23)c(C#N)c1=O`, the inhibition was 100% (SARM1 (Homo sapiens, UniProt Q6SZW1); enzyme activity, inhibitor; 10 µM).
The inhibition of `C[Si](C)(C)C[C@@H](CN)CC(=O)O` is reported as 3% (ADORA2A (Homo sapiens, UniProt P29274); ligand displacement, radioligand; 75 µM).
`NC(=O)c1cccc(NC(=O)c2cc(-c3cccs3)n(-c3ccc(Cl)cc3)n2)c1` gave an inhibition of 59% (Genome polyprotein NS2B-NS3 protease; enzyme activity, fluorogenic AMC substrate; 50 µM).
`C#CCOC(=O)[C@]1(C)C=C(C(=O)OC(C)(C)C)C(=O)CC1`: inhibition “no inhibition” (Cyclin-dependent kinase 7, with cyclin H, MAT1 (CDK7, Homo sapiens, UniProt P50613); kinase activity, Kinase-Glo; 10 µM).
`O=C(O)c1cc(-c2ccccc2)n(-c2ccccc2)n1` has an inhibition of 21% (Genome polyprotein NS2B-NS3 protease; enzyme activity, fluorogenic AMC substrate; 50 µM).
For `CN(C)C/C=C/C(=O)Nc1ccc2nc(NCCCCCN(C)C)nc(NCCCCCCN(C)C)c2c1`, the inhibition was 91% (BCDIN3D (Homo sapiens, UniProt Q7Z5W3); enzyme activity, inhibitor, radiometric; 50 µM).
The inhibition of `O=C(NO)c1cc(F)cc(OS(=O)(=O)Oc2ccc(Br)cc2)c1` is reported as 43% (HDAC11; 5 µM).
`C[Si]1(C[C@H](CN)CC(=O)O)CCCC1` has an inhibition of -3% (TACR2; ligand displacement, radioligand; 70 µM).
With `O=C(CCCc1ccc2c(c1)OCCO2)NCCNC(=O)Cn1c(=O)[nH]c(=O)c2ccccc21` the inhibition was 14% (TNKS (Homo sapiens, UniProt O95271); enzyme activity, inhibitor; 0.5 µM).
For `C/C=C/C(=O)Nc1ccc2nc(NCCCCCN(C)C)nc(NCCCCCCN(C)C)c2c1`, the inhibition was 20% (KMT5C (Homo sapiens, UniProt Q86Y97); enzyme activity, inhibitor, radiometric; 10 µM).
For `CN(C)C(=O)n1ccnn1`, the inhibition was under 50% (Acylamino-acid-releasing enzyme (Apeh, Mus musculus, UniProt Q8R146); serine hydrolase activity, inhibitor, competitive gel-based ABPP; mouse T-cell proteome; 1 µM, 30 min, 37 °C).
`CN(Cc1ccc(/C=C/C(=O)NO)cc1)CC12CC3CC(CC(C3)C1)C2` has an inhibition of 15% (human A3 receptor; agonist radioligand binding; 0.05 µM).
`N#Cc1cc(NC(=O)c2cc(-c3ccccc3)n(-c3ccccc3)n2)ccc1N1CCCC1` gave an inhibition of 24 ± 13% (Genome polyprotein NS2B-NS3 protease; reporter gene; HeLa; 12.5 µM).
`CCCCCCCCCCCCCC(=S)NCCCC[C@H](NS(C)(=O)=O)C(=O)N[C@H](C)C(=O)N[C@@H](CCCNC(=N)N)C(N)=O` has an inhibition of under 5% (SIRT5; enzyme activity, inhibitor; 100 µM).
`CC(C)Cn1c(SCC(=O)N2CCc3ccccc3C2)nc2cc(Cl)ccc2c1=O` has an inhibition of -19% (ADRA1D (Homo sapiens, UniProt P25100); ligand displacement, radioligand; 10 µM).
The inhibition of `CS(=O)(=O)Nc1cccc(-c2csc3cnc(Nc4ccc(N5CCN(CCCCCOc6cccc7c6C(=O)N(C6CCC(=O)NC6=O)C7=O)CC5)cc4)nc23)c1` (centres unmarked) is reported as -14.5% (ATR (Homo sapiens, UniProt Q13535); probe labelling, inhibitor, KiNativ chemoproteomics; MOLT-4; 1 µM).
With `NCc1ccc(CNC(=O)c2cc(-c3ccccc3)n(-c3ccccc3)n2)cc1` the inhibition was 18% (Genome polyprotein NS2B-NS3 protease; enzyme activity, fluorogenic AMC substrate; 50 µM).
The inhibition of `O=C1c2sc(-c3ccc(N4CCC(CO)CC4)nc3F)nc2CCN1c1cccnc1` is reported as -1% (L-type Ca2+ channel, benzothiazepine (diltiazem) site; radioligand binding, BioPrint binding panel; 1 µM, together with: antagonist radioligand).
`C=CC(=O)Nc1cc(-c2nn(C3CCN(CCNC(=O)[C@H](C)CCC45CC6CC(CC(C6)C4)C5)CC3)c3ncnc(N)c23)ccc1Oc1ccccc1` gave an inhibition of 7.3% (DGKA (Homo sapiens, UniProt P23743); inhibitor, KiNativ profiling; biochemical; 2 µM).
`CC(C)(C)c1ccccc1OS(=O)(=O)Oc1cccc(C(=O)NO)c1` gave an inhibition of 24% (HDAC11; 10 µM).
`Cc1cc(Cl)cc(-c2ccnc3cc(CN4C(=O)C5C(C4=O)C5(C)C)sc23)c1C[C@@H]1CNCCO1` (some centres unmarked) has an inhibition of 114% and 111% (USP7 (Homo sapiens, UniProt Q93009); enzyme activity, inhibitor; 0.005 µM).
For `O=C(Nc1ccc(C(F)F)cc1)[C@H](CC1CCCCC1)Nc1nn2c(=O)ccnc2s1`, the inhibition was -2% (Receptor-type tyrosine-protein phosphatase beta (Homo sapiens, UniProt P23467); enzyme activity, inhibitor; 10 µM).
The inhibition of `O=C(Nc1ccc(N2CCOCC2)cc1)c1cc(-c2ccccc2)n(-c2ccccc2)n1` is reported as 84% (Genome polyprotein NS2B-NS3 protease; enzyme activity, fluorogenic AMC substrate; 50 µM).
With `CC(C)C[C@H]1CNC(=O)N2C[C@H](C[C@H]2C(N)=O)NC(=O)CCNC(=N)NCCCCNC(=N)NCCCC[C@H](NC(=O)[C@H](Cc2ccccc2)NC(=O)[C@H](CO)NC(=O)[C@@H](N)[C@@H](C)O)C(=O)N[C@@H](CCC(=O)O)C(=O)N[C@@H](Cc2ccc(O)cc2)C(=O)N[C@@H](Cc2c[nH]c3ccccc23)C(=O)N[C@@H](C)C(=O)N[C@@H](CC(C)C)CNC(=O)N1` the inhibition was 94% (MDM2 (Homo sapiens, UniProt Q00987); protein-protein interaction, inhibitor, TR-FRET; 0.1 µM).
`O=C(Nc1cccc(CN2CCc3nc[nH]c3C2)c1)c1cc(-c2ccccc2)n(-c2ccccc2)n1` gave an inhibition of 67% (Genome polyprotein NS2B-NS3 protease; reporter gene; HeLa; 12.5 µM).
`CCCCCCCCCCCCCCCC(=O)N[C@@H](CCCCN)C(=O)N[C@@H](CCCCN)C(=O)N[C@@H](CO)C(=O)N[C@@H](CCCNC(=N)N)C(=O)N[C@@H](C)C(=O)N[C@@H](CC(C)C)C(=O)N[C@@H](Cc1ccccc1)C(N)=O` gave an inhibition of 37% (F2RL3 (Homo sapiens, UniProt Q96RI0); platelet aggregation, ex vivo LTA; human; 0.5 mg/kg, 24 h or discharge, together with: AYPGKF 160 µM; baseline: baseline).
`NC(=O)c1cccc(NC(=O)c2cc(-c3ccccc3)n(-c3ccccc3)n2)c1` has an inhibition of 47% (Genome polyprotein NS2B-NS3 protease; enzyme activity, fluorogenic AMC substrate; 50 µM).
With `O=C1c2sc(-c3ccc(N4CCC(F)C4)nc3F)nc2CCN1c1cccnc1` (centres unmarked) the inhibition was 45.2% and 37.6% (TAR DNA-binding protein 43, aggregated (TARDBP, Homo sapiens, UniProt Q13148); radioligand binding; homogenate, FTLD-TDP, type A; 125 nM, together with: [3H]ACI-19626).
`O=C(c1cc(-c2ccccc2)n(-c2ccccc2)n1)N1CCc2nc[nH]c2C1` has an inhibition of 20% (Genome polyprotein NS2B-NS3 protease; enzyme activity, fluorogenic AMC substrate; 50 µM).
`CCCCCCN(O)C(=O)CCCCC[C@@H]1NC(=O)[C@H]([C@@H](C)CC)NC(=O)[C@H](Cc2ccccc2C(F)(F)F)NC(=O)CCSCc2cccc(n2)CSCCCNC1=O` has an inhibition of 35% (HDAC11; enzyme activity, inhibitor, fluorogenic; 0.03 µM).

A few entries again:
`NC(=O)c1cccc(NC(=O)c2cc(-c3ccccc3)n(-c3ccccc3)n2)c1` has an inhibition of 47% (Genome polyprotein NS2B-NS3 protease; enzyme activity, fluorogenic AMC substrate; 50 µM).
With `O=C1c2sc(-c3ccc(N4CCC(F)C4)nc3F)nc2CCN1c1cccnc1` (centres unmarked) the inhibition was 45.2% and 37.6% (TAR DNA-binding protein 43, aggregated (TARDBP, Homo sapiens, UniProt Q13148); radioligand binding; homogenate, FTLD-TDP, type A; 125 nM, together with: [3H]ACI-19626).
